Results of several laboratories.
A part holds a random share of what one study measured. Substitutions count along the parent as printed.

Series 1 — technique: RNA Bind-n-Seq; molecule type: RNA; matrix: in vitro; tested at: 200 nM; setting: whole 134-nt RNA, ends assumed; added: 150 mM KCl; relative to: input library; reading: higher = stronger binding; quantity: log2 enrichment
Target: Ras GTPase-activating protein-binding protein 1, full length (G3BP1, Homo sapiens, UniProt Q13283)
UniProt Q13283, sequence (whole entry, looked up): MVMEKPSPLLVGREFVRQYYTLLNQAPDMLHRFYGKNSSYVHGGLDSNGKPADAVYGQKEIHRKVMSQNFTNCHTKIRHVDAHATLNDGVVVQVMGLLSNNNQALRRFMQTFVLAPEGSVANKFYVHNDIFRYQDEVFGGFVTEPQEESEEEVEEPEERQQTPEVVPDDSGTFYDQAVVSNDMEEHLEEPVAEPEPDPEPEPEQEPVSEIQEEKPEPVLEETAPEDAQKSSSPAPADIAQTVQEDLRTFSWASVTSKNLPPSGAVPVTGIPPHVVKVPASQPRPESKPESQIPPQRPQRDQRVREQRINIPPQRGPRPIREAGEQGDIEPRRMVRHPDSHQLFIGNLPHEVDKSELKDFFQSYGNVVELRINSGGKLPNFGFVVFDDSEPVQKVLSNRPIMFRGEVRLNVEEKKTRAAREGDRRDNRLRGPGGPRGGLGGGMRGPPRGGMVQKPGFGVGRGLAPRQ
All sequences stand within: GGGAGUUCUACAGUCCGACGAUC … UGGAAUUCUCGGGUGUCAAGG
CACAGACAACACGCACCCACACAGACACAGAGGGAAGGGGUUGGGAUGGGGACAGGGUGCACAGCAGGGCGGGGUAGGACCCCAGCCCGU: 1.81
AAGUCCUGUGCUACACAUCGUAUGUACCGAAUCGGGAAAGGGGAAAGGGGAAAGGGGAAAGUAUUAUGUUACGCCGUUCGGAUCUGCACU: 0.217
GCAGGAACUAAAAACAAAUGGAAAUGCUUCGGAUAGUGGCAGGGGUGGGGGUUGCUAAGGAAAGGGUGGGAUGGGAGUGGGUAAAGAGUU: 1.29
CUUAUGCCUUCCCCACUGGUAUUGAGGGUUUUGAUAAUAAAUUGGUAGGAAAAAAAAGUACCUCCUAGAAGGAAGCCUUCCCCACCAUUU: 0.0856
UGGGAGGUGGAUUUUGUUUAUUUUUUUCGCUCAUUUCCAGGGGUGGGAAUUUUUUUUUAAUAUGUGUCAUGAAUAAAGUUGUUUUUGAAA: 0.196
ACCAUGCAGGUGGGCAUCUUUGGGAAGUGGGGCAAGGGGGGGAUAGGGAGGGGGGUAACACUUUGGGAACAGGUGGUCCCAGGUCAUUUC: 1.35
CCUCAAGUCCUGUGCUACACAUCGUAUGUACCGAAUCGGAGGUUUGGAAAGGAAAGUAUUAUGUUACGCCGUUCGGAUCUGCACUUCCAG: -0.187
CUCAGACAACACGCACCCACACAGACACAGAGGGAAGGGGUUGGGAUGGGGACAGGGUGCACAGCAGGGCGGGGUAGGACCCCAGCCCCU: 1.95
AAGUCCUGUGCUACACAUCGUAUGUACCGAAUCGGGGUGGGGAGGGGUUUUUGGGGAAAGUAUUAUGUUACGCCGUUCGGAUCUGCACUU: 0.574
UGGGAGGUGGAUUUUGUUUAUUUUUUUAGCUCAUUUCCAUGGGUGGGAAUUUUUUUUUAAUAUGUGUCAUGAAUAAAGUUGUUUUUGAAA: -0.362
GCAGGAAGUAAAAACAAAUGGAAAUGCUUCGGAUAGUGGCAGGGGUGGGGGUUGCUAAGGAAAAAAUGGGAUGGGAGUGGGUAAAGAGUU: 0.888
CACAGACAACACGCACCCACACAGACACAGGGGGAAGGGGUUGGGAUGGGGACAGGGUGCACAGCAGGGCGGGGUAGGACCCCAGCCCCU: 1.79
CCUGUGCUACACAUCGUAUGUACCGAAUCGGCCCCCCGGGGCCCCCCGGGGCCCCCCGGGGAAAGUAUUAUGUUACGCCGUUCGGAUCUG: -0.945
ACCAUGCAGGUGGGCAUCUUUGAAAAGUGGGGCAAGGGGGGGAUAGGGAGGGGGGUAACACUUUGGGAACAGGUGGUCCCAGGUCGUUUC: 1.33

Series 2 — technique: RNA Bind-n-Seq; molecule type: RNA; matrix: in vitro; tested at: 365 nM; relative to: no-protein control; reading: higher = stronger binding; quantity: RBNS enrichment (R)
Target: RNA binding protein fox-1 homolog 2, RRM domain, GST-SBP tag (RBFOX2, Homo sapiens, UniProt O43251-10, residues 100-194)
Setting: natural RNA segment, single round, ends assumed
All sequences stand within: GGGAGUUCUACAGUCCGACGAUC … UGGAAUUCUCGGGUGCCAA
Target sequence (chain): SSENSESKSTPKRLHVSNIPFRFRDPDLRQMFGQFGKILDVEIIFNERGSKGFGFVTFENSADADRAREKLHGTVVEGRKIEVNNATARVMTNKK
AUAUGCUUAAUAGUGUGCUAAAUAAGUGCUCUUCUGUCUUUUAUUAGAGCUUCUCAGAAACCCUAAUAGGCAAGUAUUAUCUUGAUUUUGCAGAUGUGAAAGCUAAGACC: 0.295
UCAAAUUUAAUAAAGUUAAACAAAUUGAUUUACUUCAGAGCAAAUAUGAUCCUAUUAAAAUAAUAUAGGGUAAAUACCCUACCUCUUAGAAAGGGCAAAAAUGCAAAGAA: 0.556
AGGCCCUUCUGAGCGGAACCGUCCUGGAGAGAGCCUGCCCUCGUUUCCAGGCUGCAGCCGUAACGCACUUUCUCCCAGGCUGAGGGCGGGUGUUCUGGGGUGUCUGCCCU: 0.266
AUGCACAGUGACCCAGCUGAGUGGCAGGUGGUUGGAGGCAAGGACAUUUAUGUGGGCCACAUACCCAAACUUCCUGCCAUGUAAAGGCGAGUGAUUGUGAAAGCACCUCU: 0.249
CUGCCUUUUUACAGUCACCUGAACAAUGACCCAUCAUCUCUUGCUUGCUUGAAAUCUUGCUGAAAUGUUCUCAUUUCCUGUUUGCUGUAUGGGCUCGGGUGGGAUGUUUG: 0.337
GUCAAGGCCAGCCUCGGUGAUGGCCUGAUCCCAGGUACAAGGCCUUGUGAACUGAGUUUGAAACAUGCCUGCUUUGGAGAGACUGGGGCAGUGAACACCCCAGCAGCCUU: 1
AAAUUGAAAAAGACAUGUAGAAUUUGUUGUCUUCUGCUAAGCACGAAAAGUUAAGAUAUCUGCUUACAUUGAUUUUGUAGACACAUUAAGUCAAGAUUUGGAAUUUAAGU: 1.3
UCCUGGGGCCCAUGCUUAGAGCCCAGGCUCCAGCCCUGAGUGCUUCCGAGCUGGCGGACUGCCCAGGGGCCAUCAGAGGAUGGUGGUGCUGCUGCUGAUCCGGGGACCGC: 0.546
CUUCUACCCUAGUUUCCCAUCCUCUCUCUGUGGAGGCCAAACCAACUCUUUGCCAGCAGCCACAACAUGCAUUGACAGCGGCACAGUGAGAUAUAACUGAUGGGCUUUGA: 0.504
AGUGGGCUGUUUUGCCUUGUUUGUGCUUCUUCAGGACAGAGCAGUCCUGAUGAUACAGUAAUUGAUGGCAGACAGUUCUGUCUCCUUCCCAGUUGUUAGGCUGCCCCCCU: 0.331
UCCCCGUGCUCCUGGCGAGCCUGAGCUUGCCACCCGGUUCUCCCUGCCCGACUCCAGCUGCCCAAGGACCUUUGUGUAAGGUGGCCUCAACUGUCUGGUUUUCUUUUUUU: 0.348
GCAGUUUAGUGCAUCUUUGCCUCUCGGUUGAAACCUGUAUAACCCUGUUACAAAGCUGUGUUGUUGCUUCUUGUGAAGGCCAUGAUAUUUUGUUUUUCCCCAAUUAAUUG: 0.536

Series 3 — technique: universal PBM; molecule type: double-stranded DNA, one strand shown; matrix: in vitro; tested at: not given; reading: higher = stronger binding; quantity: E-score
Target: Sal-like protein 4, full length isoform B (SALL4, Homo sapiens, UniProt Q9UJQ4-2, residues 1-616)
Setting: 8-mer, flanks averaged, mean of replicates
Target sequence (chain): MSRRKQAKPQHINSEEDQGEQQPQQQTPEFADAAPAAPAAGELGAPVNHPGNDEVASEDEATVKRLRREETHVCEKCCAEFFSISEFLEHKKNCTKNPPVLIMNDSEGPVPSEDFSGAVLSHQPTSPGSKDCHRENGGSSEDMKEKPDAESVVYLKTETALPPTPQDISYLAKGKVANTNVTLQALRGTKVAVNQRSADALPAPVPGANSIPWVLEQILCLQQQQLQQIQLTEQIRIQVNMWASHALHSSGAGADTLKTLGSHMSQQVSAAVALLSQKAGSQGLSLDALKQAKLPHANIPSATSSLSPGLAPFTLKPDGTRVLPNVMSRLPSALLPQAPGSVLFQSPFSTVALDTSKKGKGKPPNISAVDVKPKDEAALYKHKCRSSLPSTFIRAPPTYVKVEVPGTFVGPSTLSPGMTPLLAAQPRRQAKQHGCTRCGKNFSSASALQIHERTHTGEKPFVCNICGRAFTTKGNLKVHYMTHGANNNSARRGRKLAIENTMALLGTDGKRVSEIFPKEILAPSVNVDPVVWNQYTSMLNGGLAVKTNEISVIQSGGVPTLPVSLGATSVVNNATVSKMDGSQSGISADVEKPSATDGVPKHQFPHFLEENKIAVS
CTGTAAGC: -0.0598
CTGTTTTA: 0.191
CTCCTAAC: 0.00962
ACAAGCCT: -0.0266
GTAATGAA: 0.216
AAGAAGCA: -0.00241
CCACCAAG: -0.276
GCATAACC: 0.00559
CCGTGGGA: -0.293
GTCGTATA: 0.214
CAATTGCC: 0.114
AAGGGTTC: -0.22
CTAGATCA: -0.0266
CGGACACA: -0.222
TACCACCA: 0.0578
ATCGGGAG: -0.0702
CTGTGCAA: 0.0111
AGCATCTC: -0.0437
CGCAATCA: -0.00567
GAGACAAA: 0.0406
GATGAACC: -0.241
CAACGTGG: -0.163
GCCCTTAC: -0.183

Series 4 — technique: RNAcompete; molecule type: RNA; matrix: in vitro; tested at: 20 nM; setting: 7-mer, probes averaged, single round; relative to: mean of 7-mers; reading: higher = stronger binding; quantity: 7-mer Z-score
Target: PABPC1L2, full length, GST fusion (mouse, UniProt A0ABA7IW68)
AACAGUA: 0.64
GCGUACA: -0.0899
GCCAGCU: -0.175
GGCAGCG: 0.175
CCCAUAG: -0.36
AUUCUAA: -0.282
CCCCUGC: -0.452
CUUUCAA: -0.05
UGAAAUC: -0.184
ACACCAA: 0.169
UUUCACC: -0.284
ACCAAUC: -0.159
UUCAGUU: -0.311
GAAAGAC: 0.804
GUUUACC: -0.382
GACAUAC: -0.0373
UUGAAGC: -0.26
AUUCUUA: -0.188
UCCGCGG: -0.291
GCCUGGA: -0.0917
CUGAACC: -0.271
GAGCCCA: -0.228
GUGGUGG: -0.0935
UUGCGAG: -0.155
UUGGCCC: -0.291

Series 5 — technique: DHFR PCA, deep sequencing; matrix: yeast; added: (+)-ABA 2500 µM; relative to: wild-type fitted maximum; reading: higher = stronger binding; quantity: relative binding score
Target: ABI1, truncated, D143A, DHFR fusion (Arabidopsis thaliana)
Setting: methotrexate growth selection, single substitutions
Parent: PYL1, truncated, DHFR fusion (Arabidopsis thaliana); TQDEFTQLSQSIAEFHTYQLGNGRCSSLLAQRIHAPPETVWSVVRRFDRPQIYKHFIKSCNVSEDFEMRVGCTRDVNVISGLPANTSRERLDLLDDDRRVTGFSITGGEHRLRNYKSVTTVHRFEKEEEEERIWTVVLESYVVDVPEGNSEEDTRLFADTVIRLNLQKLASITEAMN
A30V: 101%
N149L: 70.5%
I105A: 88.3%
A175N: 96%
V78R: 9.47%
G23Y: 90.3%
E14F: 76.4%
L91V: 70%
I133V: 106%
L166C: 53.5%
D75Q: 99.9%
T160F: 94.8%
N149R: 65.1%
T119W: 20.7%
G23R: 98.5%
E151L: 94%
K54G: 8.72%
N85P: 87.6%
L93P: 22.1%
I52R: 97.8%
T120V: 36%

A few entries again (series 4):
AACAGUA: 0.64
CUGAACC: -0.271
UUUCACC: -0.284
GUUUACC: -0.382
GACAUAC: -0.0373
ACCAAUC: -0.159
GAGCCCA: -0.228
UCCGCGG: -0.291
UUGGCCC: -0.291
GCCAGCU: -0.175
GUGGUGG: -0.0935
UUCAGUU: -0.311
CCCCUGC: -0.452
ACACCAA: 0.169
GAAAGAC: 0.804
UUGCGAG: -0.155
